Published values gathered from unrelated publications.
Compare with care: the assays were run in different laboratories.
Cell line: THP-1

COc1ccc(-c2cc(=O)c3cc(OC)ccc3o2)c(OC)c1
EC50 (antioxidant effect, OPT fluorometric glutathione, measured: redox index GSH/total glutathione; cell extract): 3.79 µM

O=C1c2cccc(O)c2C(=O)c2c(O)cc(CO)cc21
IC50 (cell growth or viability, ATP luminescence; 24 h): 450 µM

CC(C)(C)c1ccc(S(=O)(=O)/C=C/C#N)cc1
IC50 (TNF-α production, HTRF; 17 h, added: 1 µg/mL LPS): 1.43 µM

C=C1C(=O)O[C@@H]2[C@H]1CC[C@H](C)[C@@H]1CCC(=O)[C@@]21C
EC50 (antioxidant effect, OPT fluorometric glutathione, measured: redox index GSH/total glutathione; cell extract): > 100 µM

O=C(O)Cc1cccc2c(=O)cc(-c3ccccc3)oc12
IRF3 activation (IRF3 luciferase reporter; up to 1 mM, 4 h, added: c-di-GMP): inactive

O=c1cc(-c2ccc(O)cc2)oc2cc(O)cc(O)c12
IC50 (cell growth or viability, ATP luminescence; 24 h): 180 µM

C[C@]12CCC(=O)C=C1C=C[C@@H]1[C@@H]2CC[C@@]2(C)[C@H]1CC[C@@]21CCC(=O)O1
EC50 (antioxidant effect, OPT fluorometric glutathione, measured: redox index GSH/total glutathione; cell extract): > 100 µM

O=C(Nc1nc2ccccc2n1CCN1CCOCC1)c1cccc([N+](=O)[O-])c1
IC50 (TNF-α production, HTRF; 17 h, added: 1 µg/mL LPS): 2.76 µM

Cc1cc(O)c2c(c1)C(=O)c1cc(O)cc(O)c1C2=O
IC50 (cell growth or viability, ATP luminescence; 24 h): 10 µM
